# Assay results pooled from the literature.
# “And” joins repeats or separate records; there may be more than shown. ± marks the error that the study gave.
SMILES,organism,assay,system,conditions,how to read,measurement,value
Cc1ccc2nc(C3CCCN(Cc4cccc(-c5cccnc5)c4)C3)[nH]c(=O)c2c1 (stereo not drawn),SARS-CoV-2,cytopathic effect,USA_WA1/2020,"retest, 8-point, duplicates",,maximum response,69.7%
CCc1c(C(=O)C(N)=O)c2c(OCC(=O)O)cccc2n1Cc1ccccc1,Daboia russelii,,C2C12,"100 µM, added: Daboia russelii venom RJ",relative to: venom alone,viability difference,-25.3%
COc1ccc2c(Sc3ccccc3)c(C(=O)NCCCN3CCCCC3)[nH]c2c1,SARS-CoV-2,cytopathic effect,USA_WA1/2020,"round 2, 5-point",,efficacy,91.8%
N=C(N)c1ccc(C=C2c3ccccc3-c3ccccc32)cc1,SARS-CoV-2,"viral replication, high-content imaging screen",,cell-based,,EC50,> 100 µM
CC(C)C1CN(C(=O)c2ccc3cccnc3c2O)CCCN1CC1CC1 (stereo not drawn),Lassa mammarenavirus,viral replication,Huh-7,"10 µM, 72 h",,remaining activity,1%
O=C(O)COCCN1CCN(C(c2ccccc2)c2ccc(Cl)cc2)CC1 (stereo not drawn),Marburg virus,pseudovirus entry,A549,,relative to: CC50 over IC50,selectivity index,1
Cc1ccccc1CN1CCN(CCOC(c2ccccc2)c2ccccc2Cl)CC1 (stereo not drawn),SARS-CoV-2,"viral replication, high-content imaging screen",,cell-based,,EC50,> 25.1 µM
CC(C)=CCc1c(O)ccc(C(=O)/C=C/c2ccc(O)cc2)c1O,Severe acute respiratory syndrome coronavirus 2,cytopathic effect,Vero C1008,3.125 µM,,inhibition,0%
O=C(Nc1ncc(Cc2cccc3ccccc23)s1)C(F)(F)F,Histoplasma capsulatum,microbial growth,,,,MIC,> 20 µM
Nc1ncnc2c([C@@H]3N[C@H](CO)[C@@H](O)[C@H]3O)c[nH]c12,Marburg virus,,"HeLa, Musoke","50 µM, 1 h",,viral RNA copies,1.02e+06 copies/mL
COC(=O)[C@@H](N)Cc1ccc(OP2(=O)CO[C@@H](Cn3ccc(N)nc3=O)CO2)cc1 (stereo partly drawn),vaccinia virus,viral replication,,,,IC50,4 µM
CC(C)(C)c1ccc(C(O)CCCN2CCC(C(O)(c3ccccc3)c3ccccc3)CC2)cc1 (stereo not drawn),SARS-CoV-2,"viral replication, GFP plate reader screen",,cell-based,,EC50,> 100 µM
CNC(=O)[C@@H](NC(=O)[C@H](CC(C)C)[C@H](O)C(=O)NO)C(C)(C)C,Daboia russelii,,mouse,"intravenous, 120 µg/mouse, 24 h, drug mixture, added: RJ venom 2.5 x LD50 preincubated",,survival,0%
COc1cccc2c1C(=O)c1c(O)c3c(c(O)c1C2=O)C[C@@](O)(C(=O)CO)C[C@@H]3O[C@H]1C[C@H](N)[C@H](O)[C@H](C)O1,SARS-CoV-2,"viral replication, high-content imaging screen",,cell-based,,EC50,33.1 µM
CNc1nc(N)ncc1-c1cn([C@@H]2O[C@H](CO)[C@@H](O)[C@@]2(C)F)cn1,MERS coronavirus,,,concentration not given,,antiviral activity,inactive
CCC(CC)COC(=O)[C@H](C)N[P@](=O)(OC[C@H]1O[C@@](C#N)(c2ccc3c(N)ncnn23)[C@H](O)[C@@H]1O)Oc1ccccc1,SARS-CoV-2 replicon,N-HiBiT luminescence,HeLa,0.02 µM,relative to: DMSO,replicon activity,116% and 94.5% and 122% and 100% and 155%
COc1ccc(-c2nc(CN3CCC(C(=O)NCCCN4CCN(c5ccccc5F)CC4)CC3)c(C)o2)cc1OC,SARS-CoV-2,"cytopathic effect, cell-based CPE",USA_WA1/2020,"round 2, 5-point dilution",,efficacy,79.4%
Cn1c(=O)ccc2ccc(F)c(CCNC[C@H]3CN(c4cnc5c(n4)NC(=O)CO5)C(=O)O3)c21,Ralstonia pickettii,,,,,MIC50,0.03 µg/mL
O=C(N1CCC2(CC1)CC(CNS(=O)(=O)c1ccccc1)CCO2)C1(c2ccccc2)CCCC1 (stereo not drawn),Venezuelan equine encephalitis virus,viral replication,,,,EC50,> 39.8 µM
CN(C)c1cccc(C(=O)N2CCC3(CCCN(CCc4ccccc4)C3)C2)c1 (stereo not drawn),Lassa mammarenavirus,viral replication,Huh-7,"10 µM, 72 h",,remaining activity,0%
O=c1ccn([C@@H]2O[C@](F)(CO)[C@@H](O)[C@H]2O)c(=O)[nH]1,Sin Nombre virus,,,concentration not given,,viral replication,inhibited
CC(C)(C)c1ccc(C(=O)Nc2ccc(N3CCN(C(=O)c4cnccn4)CC3)nc2)cc1,Mycobacterium tuberculosis,bacterial growth,H37Ra-lux,168 h,,IC90,> 64 µM
Cc1nc2n(n1)CC(=O)N[C@@H](C(C)C)CN(C(=O)CC1CCCC1)CC(=O)N[C@@H](CC(C)C)c1nc(cs1)C(=O)N[C@H]2Cc1ccccc1,Lassa mammarenavirus,viral replication,Huh-7,"10 µM, 72 h",,remaining activity,98%
CN1CCC(OC(=O)C(Oc2ccc(Cl)cc2)Oc2ccc(Cl)cc2)CC1,SARS-CoV-2,"viral replication, GFP plate reader screen",,cell-based,,EC50,> 100 µM
Cc1ccc(C(=O)N2CC(=O)N[C@@H](CC(C)C)c3nc(cs3)C(=O)N[C@@H](Cc3ccccc3)c3nc(C)nn3CC(=O)N[C@@H](C(C)C)C2)cc1,Lassa mammarenavirus,viral replication,Huh-7,"10 µM, 72 h",,remaining activity,92%
O=C(Nc1nc(C23CC4CC(CC(C4)C2)C3)cs1)c1ccccc1,Histoplasma capsulatum,microbial growth,,,,MIC,5 to 20 µM
COc1cccc(F)c1-c1c(-c2ccccc2)ncn1Cc1cnc(C)cn1,Lassa mammarenavirus,viral replication,Huh-7,"10 µM, 72 h",,remaining activity,35%
O=C1c2c(O)c(=O)ccn2N([C@@H]2c3ccccc3SCc3c2ccc(F)c3F)[C@@H]2COCCN12,Influenza A virus,viral replication,"MDCK, A(H9N2)",,,EC50,0.00018 ± 5e-05 µM
Cc1cc2cc(Oc3ccnc(Nc4cccc(CS(=O)(=O)NCCN(C)C)c4)n3)ccc2[nH]1,SARS-CoV-2,"viral replication, GFP plate reader screen",,cell-based,,EC50,> 10 µM
Nc1ncnc2c1ncn2[C@@H]1O[C@@H]2COP(=O)(O)O[C@H]3[C@@H](O)[C@H](n4cnc5c(=O)[nH]cnc54)O[C@@H]3COP(=O)(O)O[C@H]2[C@H]1O,Chikungunya virus,"upregulated Reactome pathway, RNA sequencing, item: S Phase (R-HSA-69242)",HFF-1,,relative to: CHIKV-infected untreated,fold enrichment,2.33
CC(C)(C)NCc1ccc(Nc2ccnc3cc(Cl)ccc23)cc1O,SARS-CoV-2,cytopathic effect,USA_WA1/2020,"retest, 8-point, duplicates",,maximum response,70.1%
CCCCCCCCCCCCN(C)C(=O)CP(=O)(O)O,Bacillus anthracis,,Ames/FL,,,MIC90,0.049 µg/mL
COc1ccc(N2CCN(CCCNC(=O)c3cc(Nc4ccc(OC)cc4OC)nc4ccccc34)CC2)cc1,SARS-CoV-2,cytopathic effect,USA_WA1/2020,"round 2, 5-point",,maximum response,73.6%
CC(=O)OCc1c(C)cc(C)c(CN(C)C(C)c2ccon2)c1C (stereo not drawn),Lassa mammarenavirus,viral replication,Huh-7,"10 µM, 72 h",,remaining activity,29%
CCC1CCCCN1CCCNC(=O)c1sc2nc(C)cc(C)c2c1-n1cccc1 (stereo not drawn),SARS-CoV-2,cytopathic effect,USA_WA1/2020,"retest, 8-point, duplicates",,maximum response,53.2%
O=C(Nc1ccc(N2CCCN(C(=O)c3cnccn3)CC2)nc1)c1c(F)cccc1Cl,Mycobacterium tuberculosis,bacterial growth,H37Ra-lux,168 h,,IC90,> 64 µM
COc1cc2c(O)c3c(c(-c4ccc5c(c4)OCO5)c2cc1OC)C(=O)N(/N=C/c1ccc(C#N)cc1)C3,VSV pseudotyped with Ebola virus GP,"viral entry, item: GFP",HeLa,,,IC50,1.69 ± 0.233 µM
CN(C)c1cccc(C(=O)NCC2CCN(c3cc(-c4ccc(Cl)cc4)n[nH]3)CC2)c1,SARS-CoV-2,"cytopathic effect, cell-based CPE",USA_WA1/2020,"round 2, 5-point dilution",,AC50,12.6 µM
C[C@H]1[C@H]2CC[C@H]3[C@@H]4CC=C5C[C@@H](N(C)C)CC[C@]5(C)[C@H]4CC[C@]23CN1C,SARS-CoV-2,"viral replication, GFP plate reader screen",,cell-based,,EC50,12 µM
O=C(Nc1ccc(N2CCN(C(=O)c3cnccn3)CC2)nc1)c1cccc(Br)c1,Mycobacterium tuberculosis,bacterial growth,H37Ra-lux,168 h,,IC90,> 64 µM
CN(C)CCOC(c1ccc(Cl)cc1)c1ccccn1 (stereo not drawn),Marburg virus,pseudovirus entry,A549,,relative to: CC50 over IC50,selectivity index,> 3
COc1cccc2c1OCC(CNC(=O)c1cc(C3CC3)n[nH]1)C2 (stereo not drawn),Lassa mammarenavirus,viral replication,Huh-7,"10 µM, 72 h",,remaining activity,46%
CCc1ccccc1N1CC(c2nc3ccccc3n2CCCCOc2ccccc2OC)CC1=O (stereo not drawn),SARS-CoV-2,cytopathic effect,USA_WA1/2020,"round 1, 5-point",,efficacy,39.3%
CN(C)CCC=C1c2ccccc2OCc2c1oc1ccccc21,SARS-CoV-2,"viral replication, GFP plate reader screen",BetaCov/Belgium/GHB-03021/2020,cell-based,,EC50,18.2 µM
CC1=CCN(S(=O)(=O)c2cccc(C(=O)NC(C)c3cnn(C)c3)c2)CC1 (stereo not drawn),Lassa mammarenavirus,viral replication,Huh-7,"10 µM, 72 h",,remaining activity,49%

# Excerpt of the above:
SMILES,organism,assay,system,conditions,how to read,measurement,value
CN(C)c1cccc(C(=O)N2CCC3(CCCN(CCc4ccccc4)C3)C2)c1 (stereo not drawn),Lassa mammarenavirus,viral replication,Huh-7,"10 µM, 72 h",,remaining activity,0%
O=C(Nc1nc(C23CC4CC(CC(C4)C2)C3)cs1)c1ccccc1,Histoplasma capsulatum,microbial growth,,,,MIC,5 to 20 µM
CC(C)C1CN(C(=O)c2ccc3cccnc3c2O)CCCN1CC1CC1 (stereo not drawn),Lassa mammarenavirus,viral replication,Huh-7,"10 µM, 72 h",,remaining activity,1%
